Measured values of several laboratories.
A part holds a random share of what one study measured. Positions count from the first letter of the parent shown.

Study 1
Target: Ras GTPase-activating protein-binding protein 1, RRM domain (G3BP1, Homo sapiens, UniProt Q13283)
Chain of UniProt Q13283 (whole entry, looked up): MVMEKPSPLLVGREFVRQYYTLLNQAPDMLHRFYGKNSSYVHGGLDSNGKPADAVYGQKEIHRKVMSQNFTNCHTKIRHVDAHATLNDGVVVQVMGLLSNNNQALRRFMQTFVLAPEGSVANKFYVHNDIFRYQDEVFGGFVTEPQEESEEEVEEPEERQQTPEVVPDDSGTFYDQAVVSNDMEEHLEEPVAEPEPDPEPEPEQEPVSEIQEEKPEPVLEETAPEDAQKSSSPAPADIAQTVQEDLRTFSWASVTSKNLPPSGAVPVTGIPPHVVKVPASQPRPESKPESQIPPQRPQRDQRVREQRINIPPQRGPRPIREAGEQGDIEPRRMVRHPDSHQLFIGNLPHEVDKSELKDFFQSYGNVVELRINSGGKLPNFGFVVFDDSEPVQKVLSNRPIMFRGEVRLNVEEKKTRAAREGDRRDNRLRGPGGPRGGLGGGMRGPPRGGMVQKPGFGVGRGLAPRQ
Method: RNA Bind-n-Seq
Molecule type: RNA
Sample: in vitro
Tested at: 1 µM
Setting: whole 134-nt RNA, ends assumed
With: 150 mM KCl
Relative to: input library
Direction: higher = stronger binding
All sequences stand within: GGGAGUUCUACAGUCCGACGAUC … UGGAAUUCUCGGGUGUCAAGG
| Sequence | log2 enrichment |
| --- | --- |
| UGGGAGGUGGAUUUUGUUUAUUUUUUUAGCUCAUUUCCAGGGGUGGGAAUUUUCUUUUAAUAUGUGUCAUGAAUAAAGUUGUUUUUGAAA | 1.77 |
| CACAGACAACACGCACCCACCCAGACACAGAGGGAAGGGGUUGGGAUGGGGACAGGGUGCACAGCAGGGCGGGGUAGGACCCCAGCCCCU | -0.00723 |
| UGAAGCGAGAAGCUGCCCUACCCCCAGUGAGCCCCCUGAAGGCGGCUCUCUCUGAGGAGGAGUUAGAGAAGAAAUCCAAGGCUAUCAUUG | -0.197 |
| GCAGGAAGUAAAAACAAAUGGAAAUGCUUCGGAUAGUGGCAGGGGUGGGGGUUGCUAAGGAAAGGUUGGGAUGGGAGUGGGUAAAGAGUU | 1.19 |
| UCAAGUCCUGUGCUACACAUCGUAUGUACCGAAUCGGAAAGGAAAAAGGAAAGGAAAGUAUUAUGUUACGCCGUUCGGAUCUGCACUUCC | -0.132 |
| CACAGACAACACGCACCCACACAGACACAGAGGGCAGGGGUUGGGAUGGGGACAGGGUGCACAGCAGGGCGGGGUAGGACCCCAGCCCCU | -0.0812 |
| GUCCUGUGCUACACAUCGUAUGUACCGAAUCGGGCCCCCGGGGCCCCCGGCCCCCGGGAAAGUAUUAUGUUACGCCGUUCGGAUCUGCAC | -0.605 |
| AGUCCUGUGCUACACAUCGUAUGUACCGAAUCGGGCCCCGGGGCCCCGGGCCCCGGGAAAGUAUUAUGUUACGCCGUUCGGAUCUGCACU | -1.33 |
| CUGUGCUACACAUCGUAUGUACCGAAUCGGGGUUUUUUUGGGGUUUGGGGAAAAAAAGGGGAAAGUAUUAUGUUACGCCGUUCGGAUCUG | 0.561 |
| UCCUGUGCUACACAUCGUAUGUACCGAAUCGGGGAAAAAAAGGGGAAAGGGGUUUGGGGAAAGUAUUAUGUUACGCCGUUCGGAUCUGCA | 1.09 |
| AAGUCCUGUGCUACACAUCGUAUGUACCGAAUCGGAAAAAGGAAAAAGGAAAAAGGGAAAGUAUUAUGUUACGCCGUUCGGAUCUGCACU | 0.00901 |
| UCCUGUGCUACACAUCGUAUGUACCGAAUCAAAUUUUUAAACCCCCAAAUUUUUUUAAAAAAGUAUUAUGUUACGCCGUUCGGAUCUGCA | -0.442 |
| GCAGGAAGUAAAAACAAAUGGAAGUGCUUCGGAUAGUGGCAGGGGUGGGGGUUGCUAAGGAAAGGGUGGGAUGGGAGUGGGUAAAGAGUU | 1.63 |
| ACCAUGCAGGUGGGCAUCUUUGGGAAGUGGGGCAAGGGGGGGAUAGGGAGGGGGGUAACACUUUGGGAACAGGUGGUCCCAGGCCGUUUC | 0.544 |

Study 2
Target: CREB3L3, bZIP domain (human)
Method: DHFR protein complementation
Sample: yeast
Setting: single substitutions, most at no-binding floor
Relative to: wild-type JUN-FOS pair
Direction: higher = stronger binding
Parent: JUN, bZIP domain (human); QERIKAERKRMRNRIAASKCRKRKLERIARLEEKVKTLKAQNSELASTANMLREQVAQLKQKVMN; partner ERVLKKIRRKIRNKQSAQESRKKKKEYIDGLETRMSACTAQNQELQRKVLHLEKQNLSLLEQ
| Change | binding fitness |
| --- | --- |
| A49T | -1.29 natural log |
| T48C | -1.46 natural log |
| N42Q | -1.46 natural log |
| L45D | -1.52 natural log |
| S43H | -1.38 natural log |
| S47H | -1.49 natural log |
| S43Q | -1.49 natural log |
| L31A | -1.47 natural log |
| E32H | -1.51 natural log |
| L45I | -1.44 natural log |
| V35R | -1.54 natural log |
| Q41G | -1.52 natural log |
| E44C | -1.58 natural log |
| L59S | -1.41 natural log |

Study 3
Target: RNA binding protein fox-1 homolog 2, RRM domain, GST-SBP tag (RBFOX2, Homo sapiens, UniProt O43251-10, residues 100-194)
Method: RNA Bind-n-Seq
Molecule type: RNA
Sample: in vitro
Tested at: 365 nM
Setting: natural RNA segment, single round, ends assumed
Relative to: no-protein control
Direction: higher = stronger binding
All sequences stand within: GGGAGUUCUACAGUCCGACGAUC … UGGAAUUCUCGGGUGCCAA
Construct (chain): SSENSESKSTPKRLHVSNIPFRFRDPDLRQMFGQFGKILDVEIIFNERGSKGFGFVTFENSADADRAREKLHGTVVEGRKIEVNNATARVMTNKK
| Sequence | RBNS enrichment (R) |
| --- | --- |
| UAUCUUCAGAAGGAAAUGGCAACUAGUAGAUCAGUAAAAUUACGAAAACGAUGCCUGCAAAAUUUGAAGGAAUGCAAUUCUGAUUUGCCAUUUAUCAGGGAAAACUGAAA | 0.739 |
| CCCGGCAUCCCUUAGCCUCUAUAGCAGUGUGCUCAAAAGCCCUGGCUCAACAAAGCACAUCUUCACCACGCUCCAUCCGGACAACUCCAGUCUUGCCAACAAGUGCCAAA | 0.701 |
| CAUCGCUAUUUUAUAUUAAAAUGUAAUGAUCAGCAUCAUGAACAAUGAGCUCUUAGUGUUUUAUUUAUCUGAAAAAAUGUAAGUAAAAGCAGUGUUAGUGAGAGGUGCAA | 1.7 |
| UCCUAUUCAAAUUUAUUUGACGUUUUAUUUUGGUUUUCCUCACCCCCUCAAACUGUCGGGGAGACCCUGCCCUUCACCUAGCUCCCUUGGCCAGGAAUGAGGGAGCCAUG | 0.99 |
| GGACUACAGGGGUGCACUACCACACCGGGUUGAAUUUUUUUUUAAUUUUAGUAGAGAUGAAGUGUCACUAUGUUACCAAGGCUGGUCUCAAACUCCUAAACUCAGAUGAU | 0.249 |
| CACUUAUGAUUUUGUAGACCAUGUGAAAUUUAAUAAGAUACCUUUUUUUUCCUUUCUUUGUGUGUAGUGCAGCAACAGUUUGGUCUGCAUUUGUUAGAAGUUUAACUCCU | 1.04 |
| AAAUUUUGGAAUCCUCUAAACAUUUUUGUAUCUUUAAUUGUUAUUAUUAAAUCAUGUAAAAGUUCUCAAUAUUUCUGUUUUCAAGCAAAUAUUUCUUGUUUGUAAUUCUU | 1.48 |
| UUUUUUUUAAAGAUAAACUUGUGUAGUUUGGAAGCAGAUUUAGAAAGAUGAACUUCACUUGGGCCAGAUAGGCUGAACCAAGCUUCCUGGCGUUUGUAGAGAAAGUGGGA | 1.06 |
| AGAGUAGUCAUAGUGUUGAAAGAACUGUACUGUUAUCCCGAGUCCCUUCCAAACAAAAAAGGCAAAGUUGUCCUAAGGUGAUCUCACUGUUGUGAAUGCCCAGUUGUAUU | 0.416 |
| AGAUCUGUAUAUGUGGGAACAAAUAAGUAAAUAUAUAUACAUAUAUAUAUAUUUAAGUACAGUUUUCAUCAGGAGGUUUUAAAGGCCAUAUUGCUAACCUCACCAAAAGG | 0.812 |
| UUAGUUCUUUUCUUCUGACUCGUGGGGCUCCCUGCUGCAGAGAGCACAGCCCUUGCCUGGAGCCCAGGAACCCCAUCCUUGCUUCAUCUCAGUUCUUCAUGGGCUUCACU | 0.351 |
| AAAGCUGCCCAUUCUCAAGACUCAUCUGCCUAGGGAGGGUCACAGAGGCAGGAUGUAAGACACACUGUGUUGCAUUCUUGCACAAGUCAUGAAAAUGGAGCCAGAGAGCC | 0.53 |

Study 4
Target: CCND1, cyclin fold, Cln2 fusion (human)
Method: yeast growth competition, sequencing
Sample: yeast
Setting: strong parent motif
Relative to: not given
Direction: higher = stronger binding
Parent: E2F1 docking peptide (human); PPVKRRLDFETDH
| Change | normalised enrichment score |
| --- | --- |
| D12R | 2.05 |
| T11K | 2.15 |
| P2Q | 2.03 |
| P2C | 2.74 |
| V3Q | 0.255 |
| P2D | 2.02 |
| R5D | 0.223 |
| V3W | 0.337 |
| P2E | 1.32 |
| F9Q | 0.455 |
| F9C | 0.065 |
| R6Q | 1.56 |
| V3E | 0.403 |
| L7D | -0.317 |
| K4A | 4.36 |
| D12K | 2.35 |
| R5Y | 0.524 |
| P2S | 2.98 |

Study 5
Target: Histone acetyltransferase KAT6A, winged helix 1, GST fusion (KAT6A, Homo sapiens, UniProt Q92794, residues 1-85)
Method: protein binding microarray
Molecule type: double-stranded DNA, one strand shown
Sample: in vitro
Tested at: not given
Setting: 8-mer, flanks averaged, mean of 2 arrays, mostly near background
Relative to: not given
Direction: higher = stronger binding
Target sequence (chain): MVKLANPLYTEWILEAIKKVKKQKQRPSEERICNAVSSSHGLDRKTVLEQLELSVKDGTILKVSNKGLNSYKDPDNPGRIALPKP
| Sequence | E-score |
| --- | --- |
| AACGAGGT | -0.0433 |
| GAAAGGAA | -0.0766 |
| CCCTAATA | -0.117 |
| AGGGGGAC | -0.112 |
| GACTGACC | 0.0322 |
| ATAATGAT | -0.115 |
| ACGCCCTC | 0.252 |
| CGGGGTCC | 0.3 |
| GAGATTCC | -0.055 |
| AGCACCGA | -0.107 |
| CAACCTGA | -0.24 |
| TGACAGAA | -0.0879 |
| AGTATAGC | 0.0234 |
| CCACGCAG | 0.0655 |
| TCAGTGGA | 0.0416 |
| TACATGTA | -0.0311 |
| AGAGGATG | -0.22 |
| CCGACTTA | -0.0608 |
| GTAGACGA | -0.142 |
| ACCGACCA | -0.216 |
| CCGATAGA | 0.0295 |
| CAGAGAGG | -0.224 |
| ATCCATCA | -0.0775 |
| CTTCCACA | -0.288 |
| GCCCACGC | 0.144 |

Study 6
Target: Phosphate system positive regulatory protein PHO4, full length, GST-tagged (PHO4, Saccharomyces cerevisiae, UniProt P07270, residues 1-312)
Method: competition protein-binding microarray
Molecule type: double-stranded DNA, one strand shown
Sample: in vitro
Tested at: 2 µM
Setting: whole 60-bp probe, lowest competitor level
With: Cbf1 competitor, 0.05 µM
Direction: higher = stronger binding
All sequences stand within: … GTCTTGATTCGCTTGACGCTGCTG
Target sequence (chain): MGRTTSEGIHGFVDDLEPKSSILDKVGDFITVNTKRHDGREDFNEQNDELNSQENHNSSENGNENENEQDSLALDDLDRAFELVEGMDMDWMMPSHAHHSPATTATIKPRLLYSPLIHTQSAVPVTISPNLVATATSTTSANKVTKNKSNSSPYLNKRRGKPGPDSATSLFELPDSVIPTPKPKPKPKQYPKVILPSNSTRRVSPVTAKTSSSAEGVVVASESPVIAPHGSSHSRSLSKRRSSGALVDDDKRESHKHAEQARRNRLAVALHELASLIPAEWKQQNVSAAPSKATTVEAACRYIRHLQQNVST
| Sequence | fluorescence intensity [a.u.] |
| --- | --- |
| GTAACGACTCTCTATCAGGTGCTGTTATTGCAGCGA | 4660 |
| ATAAAGTGTCCCTGTCACACTCATACAACAACTGTT | 4570 |
| AAGCCAAAGAAACAGCATGTGGTTCAGCGGCCTTGC | 8550 |
| TCCACCAGTGGGCCCAGTGTGACGGCCACACTGGAC | 4280 |
| CGTCCTAGTGATTGTACTGTGGGTGCCATGAGGAAG | 5850 |
| AAGTGCAGCCGATTGGGCGTGCGATTCACCCACTCA | 5920 |
| CTTTCCCGATCTTGTCACGCCACTTTAGCACATTTG | 5770 |
| GTCCAGTGCTCATCGCACGTGCATCTGGATTTTGTG | 18700 |
| CTTCTGTAAATTTGCTGAGTGGGTGGACGCGCCCCG | 3980 |
| GACCAGAAACGTCGTCATGTGGCCAAAGTCGGGCCA | 6650 |
| AATCTACGGTTCCAACACGCACACTTTCATCCTAGA | 8150 |
| AAAGCGGTAATTTGCACTGTGGGTGCAGATATCTAT | 4900 |
| CGTTCATTATCGCCCAATGTGACGGACAATCTCGGC | 4950 |

Further values, each from its own experiment
| Molecule | target | test | system | setting | how to read | endpoint | result |
| --- | --- | --- | --- | --- | --- | --- | --- |
| PhoQ, residues 284 288 289 292 302 303 SSCLAV | PhoP, residues 12 14 15 18 19 SGWQI (Escherichia coli, UniProt P23836) | Sort-seq, measured: YFP reporter | E. coli | PhoQ-PhoP variant library, with: 10 µM Mg2+ | relative to: high Mg2+ state, higher = stronger signaling | fold induction | 11.3 |

Some of these lines once more (study 2):
| Change | binding fitness |
| --- | --- |
| S43Q | -1.49 natural log |
| L31A | -1.47 natural log |
| E32H | -1.51 natural log |
| L45I | -1.44 natural log |
| V35R | -1.54 natural log |
| Q41G | -1.52 natural log |
